Published values of several laboratories.
Lines come from different studies, so protocols differ.
T1: G-quadruplex DNA (Homo sapiens); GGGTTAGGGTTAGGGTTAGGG
T2: G-quadruplex DNA, G-quadruplex (Homo sapiens); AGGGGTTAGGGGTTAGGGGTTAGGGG
T3: G-quadruplex DNA G6A/G17A (Homo sapiens); AAGGGAGGGCGGCGGGACA
T4: G-quadruplex DNA, parallel (Homo sapiens); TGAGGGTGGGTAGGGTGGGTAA
T5: G-quadruplex DNA (Homo sapiens); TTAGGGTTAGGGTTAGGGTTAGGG
T6: G-quadruplex DNA, G-quadruplex (Homo sapiens); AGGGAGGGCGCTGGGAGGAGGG
T7: G-quadruplex DNA, quadruplex; GGTTGGTGTGGTTGG
T8: G-quadruplex DNA, 5' Cy5; GGGTGGGAAGAGTGGGA

SMILES | target | assay | setting | scale | endpoint | value
CCc1c(C)c2cc3nc(cc4nc(cc5c(CC)c(C)c(cc1[nH]2)n5C)C(C)=C4CCC(=O)O)C(CCC(=O)O)=C3C | T1, G-quadruplex DNA (Homo sapiens) | FRET melting | 1 µM, pH 7.2, Na+ 50 mM | higher = more stabilisation | melting temperature shift | 0.4 °C
CCc1c(C)c2cc3nc(cc4nc(cc5c(CC)c(C)c(cc1[nH]2)n5C)C(C)=C4CCC(=O)O)C(CCC(=O)O)=C3C | T2, G-quadruplex DNA, G-quadruplex (Homo sapiens) | fluorescence titration | pH 7.2, 25 °C, Na+ 50 mM |  | binding | binds weakly
Nc1nc2c(ncn2[C@@H]2O[C@H](COP(=O)(O)OP(=O)(O)OP(=O)(O)O)[C@@H](O)[C@H]2O)c(=O)[nH]1 | T3, G-quadruplex DNA G6A/G17A (Homo sapiens) | microscale thermophoresis | pH 7, KCl 37.5 mM |  | Kd | 223 µM
C[n+]1cc(NC(=O)c2ccc3ccc4ccc(C(=O)Nc5cc6ccccc6[n+](C)c5)nc4c3n2)cc2ccccc21 | T4, G-quadruplex DNA, parallel (Homo sapiens) | Cy5 fluorescence quenching titration | 2 nM, pH 7.2, KCl 100 mM |  | Kd | 0.0087 µM
Nc1nc2c(ncn2[C@@H]2O[C@@H]3COP(=O)(O)O[C@H]3[C@H]2O)c(=O)[nH]1 | T3, G-quadruplex DNA G6A/G17A (Homo sapiens) | microscale thermophoresis | pH 7, KCl 37.5 mM |  | Kd | 59.3 µM
Cc1cc2c3c([n+](C)c4ccc(F)cc4c3c1)-c1cc(F)ccc1N2C | T5, G-quadruplex DNA (Homo sapiens) | fluorescence titration | pH 7.5, room temperature, K+ 100 mM, apparent, no PEG200 |  | Kd | 1.84 µM
Nc1nc2c(ncn2[C@H]2C[C@H](O)[C@@H](CO)O2)c(=O)[nH]1 | T3, G-quadruplex DNA G6A/G17A (Homo sapiens) | microscale thermophoresis | pH 7, KCl 37.5 mM |  | Kd | 3.1 µM
COc1ccc2cc3[n+](cc2c1-c1ccc(N(C)C)cc1)CCc1cc2c(cc1-3)OCO2 | T6, G-quadruplex DNA, G-quadruplex (Homo sapiens) | FRET melting | target 0.2 µM, pH 7.0, KCl 10 mM, ligand:DNA ratio 5 | higher = more stabilisation | melting temperature shift | 4.7 °C
CC(C)C[C@H](NC(=O)[C@H](CCCNC(=N)N)NC(=O)[C@@H](N)Cc1ccc(O)cc1)C(=O)N[C@@H](Cc1ccccc1)C(=O)N[C@@H](CCCNC(=N)N)C(=O)N[C@@H](CCCCN)C(=O)O | T7, G-quadruplex DNA, quadruplex | ITC | pH 7.19, 25 °C, NaCl 150 mM, without K+ |  | Kd | 86.7 µM
Nc1nc2c(ncn2[C@H]2C[C@H](O)[C@@H](COP(=O)(O)OP(=O)(O)OP(=O)(O)O)O2)c(=O)[nH]1 | T3, G-quadruplex DNA G6A/G17A (Homo sapiens) | microscale thermophoresis | pH 7, KCl 37.5 mM |  | Kd | 511 µM
C[n+]1ccc(-c2c3nc(c(-c4cc[n+](C)cc4)c4ccc([n-]4)c(-c4cc[n+](C)cc4)c4nc(c(-c5cc[n+](C)cc5)c5ccc2[n-]5)C=C4)C=C3)cc1.[Zn+2] | T1, G-quadruplex DNA (Homo sapiens) | FRET melting | 1 µM, pH 7.2, Na+ 50 mM | higher = more stabilisation | melting temperature shift | 16.4 °C
C=CC1=C(C)c2cc3[n-]c(cc4[n-]c(cc5nc(cc1n2)C(C)=C5C=C)c(C)c4CCC(=O)O)c(CCC(=O)O)c3C.[Cl-].[Fe+3] | T8, G-quadruplex DNA, 5' Cy5 | Cy5 fluorescence quenching titration | pH 8, KCl 200 mM, with: MgCl2 1 mM |  | Kd | 44 µM

Excerpt of the above:
SMILES | target | assay | setting | scale | endpoint | value
Cc1cc2c3c([n+](C)c4ccc(F)cc4c3c1)-c1cc(F)ccc1N2C | T5, G-quadruplex DNA (Homo sapiens) | fluorescence titration | pH 7.5, room temperature, K+ 100 mM, apparent, no PEG200 |  | Kd | 1.84 µM
Nc1nc2c(ncn2[C@H]2C[C@H](O)[C@@H](CO)O2)c(=O)[nH]1 | T3, G-quadruplex DNA G6A/G17A (Homo sapiens) | microscale thermophoresis | pH 7, KCl 37.5 mM |  | Kd | 3.1 µM
